Measured values from different studies.
Every numbered part comes from another study and shows a few of its results, in no order.

Set 1
Target: Ras GTPase-activating protein-binding protein 1, C-terminal RGG region (G3BP1, Homo sapiens, UniProt Q13283)
Chain of UniProt Q13283 (whole entry, looked up): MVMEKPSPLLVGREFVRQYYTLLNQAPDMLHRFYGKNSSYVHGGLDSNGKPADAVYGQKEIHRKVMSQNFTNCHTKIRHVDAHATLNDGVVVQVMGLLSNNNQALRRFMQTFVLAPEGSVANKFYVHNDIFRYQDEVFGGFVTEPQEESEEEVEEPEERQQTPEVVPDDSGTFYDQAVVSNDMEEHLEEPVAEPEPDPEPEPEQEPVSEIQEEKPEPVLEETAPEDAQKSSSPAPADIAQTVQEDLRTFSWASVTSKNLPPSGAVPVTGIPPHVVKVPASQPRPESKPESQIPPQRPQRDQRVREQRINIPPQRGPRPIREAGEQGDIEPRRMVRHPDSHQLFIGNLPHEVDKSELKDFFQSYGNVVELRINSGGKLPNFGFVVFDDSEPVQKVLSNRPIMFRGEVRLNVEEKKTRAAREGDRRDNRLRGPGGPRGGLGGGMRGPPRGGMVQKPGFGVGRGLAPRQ
Technique: RNA Bind-n-Seq
Form: RNA
Matrix: in vitro
Tested at: 1 µM
Setting: whole 134-nt RNA, ends assumed
With: 150 mM KCl
Reference: input library
Reading: higher = stronger binding
Shared flanks, not repeated: GGGAGUUCUACAGUCCGACGAUC … UGGAAUUCUCGGGUGUCAAGG
| Sequence | log2 enrichment |
| --- | --- |
| CUGUGCUACACAUCGUAUGUACCGAAUCGGGGAAAAAAAGGGGAAAAAAAGGAAAAAAAGGGAAAGUAUUAUGUUACGCCGUUCGGAUCU | -1.3 |
| GCAGGAAGUAAAAACAAAUGGAAAUGCUUCGGAUAGUGGCGGGGGUGGGGGUUGCUAAGGAAAGGGUGGGAUGGGAGUGGGUAAAGAGUU | 1.27 |
| ACCAUGCAGGUGGGCAUCUAUGGGAAGUGGGGCAAGGGGGGGAUAGGGAGGGGGGUAACACUUUGGGAACAGGUGGUCCCAGGUCGUUUC | -1.06 |
| UCCUCAAGUCCUGUGCUACACAUCGUAUGUACCGAAUCGGUGGUGGGUGGGGAAAGUAUUAUGUUACGCCGUUCGGAUCUGCACUUCCAG | 0.412 |
| AGUCCUGUGCUACACAUCGUAUGUACCGAAUCGGAAAGGUUUUUUUGGAAAAAAAGGAAAGUAUUAUGUUACGCCGUUCGGAUCUGCACU | -2.6 |
| ACCAUGCAGGUGGGCAUCUUUGGGAAGUGGGGCAAGGGCGGGAUAGGGAGGGGGGUAACACUUUGGGAACAGGUGGUCCCAGGUCGUUUC | -0.747 |
| ACCAUGCAGGUGGGCAUCUUUGGGAAGUGGGGCAAGGGGGGGAUAGGGAGGGGGGUAACACUUUGGGAACAGGUGGUCCCAGGUAGUUUC | 2.03 |
| AGUCCUGUGCUACACAUCGUAUGUACCGAAUCGGGAAAAAGGGUUUUUUUGGGUGGGAAAGUAUUAUGUUACGCCGUUCGGAUCUGCACU | 0.515 |
| UCCUGUGCUACACAUCGUAUGUACCGAAUCGGGGUUUGGGGAAAAAAAGGGGUUUGGGGAAAGUAUUAUGUUACGCCGUUCGGAUCUGCA | 1.95 |
| CCUGUGCUACACAUCGUAUGUACCGAAUCGGUUUUUUUGGGUUUUUUUGGUUUUUUUGGGGAAAGUAUUAUGUUACGCCGUUCGGAUCUG | -1.7 |
| CCUGUGCUACACAUCGUAUGUACCGAAUCGGGGUUUUUUUGGGGAGGGGUUUUUUUGGGGAAAGUAUUAUGUUACGCCGUUCGGAUCUGC | 0.871 |
| UCCUGUGCUACACAUCGUAUGUACCGAAUCGGGGUUUUUUUGGGGAAAGGGGUUUGGGGAAAGUAUUAUGUUACGCCGUUCGGAUCUGCA | 1.8 |
| CCUCAAGUCCUGUGCUACACAUCGUAUGUACCGAAUCGGCGGGCGGGCGGGGAAAGUAUUAUGUUACGCCGUUCGGAUCUGCACUUCCAG | 0.231 |
| UCCUGUGCUACACAUCGUAUGUACCGAAUCGGGGCCCCCGGGGCCCCCGGGGCCCCCGGAAAGUAUUAUGUUACGCCGUUCGGAUCUGCA | -1.61 |

Set 2
Target: Interferon regulatory factor 5, full length, phosphomimetic (IRF5, Homo sapiens, UniProt Q13568-2, residues 1-514, S451D/S453D/S456D/S462D)
Technique: protein-binding microarray
Form: double-stranded DNA, one strand shown
Matrix: in vitro
Tested at: 940 nM top
Setting: 60-bp whole probe
With: salmon DNA 0.4 mg/ml
Reference: random background probes
Reading: higher = stronger binding
Shared flanks, not repeated: GCCTAGCAC … GTCTTGATTCGCTTGACGCTGCTG
| Sequence | fitted relative affinity |
| --- | --- |
| GACGGTTCCGCTTTCGGGACGTGCTAG | 1.83 z-score |
| TCAGCTCTAGGTTCTCTGAAGGTGCTA | -0.651 z-score |
| GACGGTTCCGGTTTCGGGAAGTGCTAG | 5.87 z-score |
| TTCAGTCCCCTCTTCTGGATGTGCTAG | 0.247 z-score |
| GACGGACTACTTCTCCTGACGTGCTAG | -0.0654 z-score |
| GACGATTTCGGGACTGGAGACGTGCTA | 0.0425 z-score |
| GACGGACTGGGTCTCGGTACGTGCTAG | 0.769 z-score |
| TTAGGTCTCAGACTGGATTAGTGCTAG | -0.482 z-score |
| GACGAACTGAGTATGGAGACGTGCTAG | -0.541 z-score |
| GACGGTTTCTTTCTCCTGACGTGCTAG | 3.21 z-score |
| TTAGGTTTCGGGTTTCGTTTAGTGCTA | 10.5 z-score |
| TCACAAATGCCCTCTCCAACTGTGCTA | 0.456 z-score |
| GACGCTTTCAGTATCGAGACGTGCTAG | 3.66 z-score |
| TTAGATTTCGGTTTCGGTTAGTGCTAG | 10.1 z-score |
| TTAGAACTGGGGTATCGATAAGTGCTA | 2.19 z-score |
| GACGATTTAGGGACTGGAGACGTGCTA | -0.553 z-score |
| TTAGGTCTGGGGTATCGGTTAGTGCTA | 2.36 z-score |
| TCATATTTAAGACCTATGACTGTGCTA | 0.315 z-score |
| GACGATATCGGGTATCGAGCCGTGCTA | 0.619 z-score |
| TTAGAGTTCGGGACTGGATTAGTGCTA | -0.6 z-score |
| TTACGACTGGGGTATCGGTTAGTGCTA | 3.46 z-score |
| GACGGTTTCGGACTGGCGACGTGCTAG | 6.24 z-score |
| TCATGCCTATTTTTCACACTGTGCTAG | 0.734 z-score |

Set 3
Target: Histone acetyltransferase KAT6A, winged helix 1, GST fusion (KAT6A, Homo sapiens, UniProt Q92794, residues 1-85)
Technique: protein binding microarray
Form: double-stranded DNA, one strand shown
Matrix: in vitro
Tested at: not given
Setting: 8-mer, flanks averaged, mean of 2 arrays, mostly near background
Reference: not given
Reading: higher = stronger binding
Construct (chain): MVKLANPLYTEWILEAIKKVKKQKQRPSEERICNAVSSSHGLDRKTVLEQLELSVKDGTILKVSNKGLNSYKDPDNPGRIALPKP
| Sequence | E-score |
| --- | --- |
| ATTCTTAC | -0.037 |
| AGAACTTG | -0.152 |
| CATGACAG | -0.0875 |
| AGACGCCA | 0.0378 |
| AAAGGTAT | -0.0528 |
| ATGCTACC | 0.0187 |
| ACTCCTGA | -0.113 |
| AGATCCCT | -0.176 |
| GACTGTCC | 0.0613 |
| ATGGCGTC | 0.138 |
| CAGTTGTC | -0.214 |
| ACGAAGCA | -0.179 |
| CATGTGAC | -0.143 |
| GTAGGGTA | -0.0847 |
| GCCTTTCA | 0.0312 |
| ACGAGACG | 0.0991 |
| GGGCATAC | 0.0137 |
| GATTACGA | -0.134 |
| CGGCTTCC | 0.334 |
| GAATACTA | -0.0943 |
| CCGACCCA | 0.162 |
| CTTACATA | -0.138 |
| AGCTCTTC | -0.0379 |
| CGGTGGCA | 0.00127 |
| ACCTTGGG | -0.0667 |

Set 4
Target: RNA binding protein fox-1 homolog 2, RRM domain, GST-SBP tag (RBFOX2, Homo sapiens, UniProt O43251-10, residues 100-194)
Technique: RNA Bind-n-Seq
Form: RNA
Matrix: in vitro
Tested at: 365 nM
Setting: natural RNA segment, single round, ends assumed
Reference: no-protein control
Reading: higher = stronger binding
Shared flanks, not repeated: GGGAGUUCUACAGUCCGACGAUC … UGGAAUUCUCGGGUGCCAA
Target sequence (chain): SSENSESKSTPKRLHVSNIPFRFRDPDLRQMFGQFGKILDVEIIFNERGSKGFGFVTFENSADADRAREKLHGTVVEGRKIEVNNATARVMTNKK
| Sequence | RBNS enrichment (R) |
| --- | --- |
| UUGAUCUUAUUUACUUUAUGCUACCUCUCCCACACUGGUUUUAUUUGUAAUUUGCAUUUAUAUACUCAUUUUAAAUGACUUUUCAGUGUUUUUCAUAGUUUAUAAUCUGA | 0.87 |
| CGUUUCUUCACUUUUGCAAGGUUCCACAGAGUAAGACAUUGGGUCUAUUCCAGCUCAUUCAUUUUAUAUUGAAAAAAAUAAUUUUAAAAAUGGUGGCUUCAGCUCCAGCC | 0.788 |
| AUGUGUAGCUGCACUGCCUUUGUCCACUAAGACCUCUAGUUUUUGGUGUAAAAGGGUCCCUGGUUUCCCUAUCAGCUAUAAUUUUUAUAUUUAGAAACUCAAAAUCAUGU | 0.356 |
| CAGUGUUUAAAGAUUGUUGAUUUUUUUCCUGGGGAUAAUCUAUAUUAUACUGACUUUAUAUUAAUUAUUAUAAAACUGUGUUUGUACUGAAGAUGUGUUCAAUAUUUGUG | 0.615 |
| AGGAUGAAGGCAAGACUGAUUGUUCUGAGCUGUUACCUGCCAAGGCUUUUGGAUCAUUUCGGGCCAGUAGGACCAUGGGCAGAGCUCCUUAACACUGCUGUGGUAAAUCC | 0.52 |
| UGAGAGUACUCACUUUUCACUUGUCUUGCUCUUAGAUUGGGCCAUGGCUUUCAUCCUGUGUCCCCUGACCUGUCCAGGUGAGUGUGAGGGCAGCACUGGGAAGCUGGAGU | 0.476 |
| AUAGAAGACAUUUCCGGUUGAGAGAACAGAUUCGUUGGAAGCUUAACUUUUGUUGCCUCUUAACGCCACCAAAUUUUAGGGUAAUUUGAUUAUGAAAGAGUGAAUUUUUC | 0.505 |
| GAGCAAACAAAUUUGAUUAUUUUUUCAUUGUUAAAUAGGCAACAUGACCAGAAAGGAUGGAAUGGCUUAAGUAAACUAAGGGUUCACUUCUAGAGCUGAGAAGCAGGGUC | 0.457 |
| AACAUGACCUCACUCUUCCUCAAAGGAGCCCCUGGUCUUCCCUGUGUGACUCAGUUCUUUCCAUCUGUUUGUCCCGCUGCAAGCCUCUUUCUGCGCUGACUGUGACAUUG | 0.3 |
| UGCAUUAUGUGUCACAUUACUGGGCAAACUGUUCAAAUAUUUUUUUUAAACCUCCCUGUAUAGAAAAUAUCAUUAAGGAUGUAAAAGCCAUGCUUGCCUAUUUGCUGUAU | 1.37 |
| GCCAAUUCUGAUGUCCCUUACCUUUUGGCCAAGAAGUUUGAGAUUUUUUCAGCUAAUUUGUUAUUUGACCAGAAGUUGUCUGGGGAGACUGAGUUCUUUGAGUUGCAUAU | 0.721 |
| CCUUCAGGCGAUACUGAUGUAAACUAAAGCUUAAAAACCACCGUUUUACUGUGACUUCAUGAAGAAUAUAAUUGCAAUAUCACCUAAAUUUUUAUCCUGGCUGGGAUGGG | 0.495 |
